Published values collected from several papers.
A part holds a random share of what one study measured.

Sample 1 — technique: RNA Bind-n-Seq; molecule type: RNA; sample: in vitro; concentration: 200 nM; setting: whole 134-nt RNA, ends assumed; together with: 150 mM KCl; relative to: input library; reading: higher = stronger binding
Target: Fragile X messenger ribonucleoprotein 1, C-terminal low-complexity region (Fmr1, Mus musculus, UniProt P35922)
Constant ends, left off below: GGGAGUUCUACAGUCCGACGAUC … UGGAAUUCUCGGGUGUCAAGG
Sequence	log2 enrichment
AGUCCUGUGCUACACAUCGUAUGUACCGAAUCGGAAAAAGGGGAAAAAGGAAAAAGGGAAAGUAUUAUGUUACGCCGUUCGGAUCUGCAC	-0.601
GUCCUGUGCUACACAUCGUAUGUACCGAAUCGGGAAAAAGGAAAAAGGGGAAAAAGGGGAAAGUAUUAUGUUACGCCGUUCGGAUCUGCA	-0.0419
UCCUGUGCUACACAUCGUAUGUACCGAAUCGGGAAAAAGGGGAAAAAGGGGAAAAAGGGGAAAGUAUUAUGUUACGCCGUUCGGAUCUGC	0.181
UCCUGUGCUACACAUCGUAUGUACCGAAUCGGUUUUUUGGGUUUUUUGGGGUUUUUUGGGAAAGUAUUAUGUUACGCCGUUCGGAUCUGC	0.000439
UUUCCAGCAGUACCAGCUCCAGCCAGGAUCACCCUCUCUACUCUGGGCACCCAUCCCUUCCACUAAGUGGUGCUAUUGCUGCUUUUGCCU	0.202
UGGGAGGUCGAUUUUGUUUAUUUUUUUAGCUCAUUUCCAGGGGUGGGAAUUUUUUUUUAAUAUGUGUCAUGAAUAAAGUUGUUUUUGAAA	-0.0477
UGUGCUACACAUCGUAUGUACCGAAUCGGGGAAAAAAAGGGAAAAAAAGGGGAAAAAAAGGGAAAGUAUUAUGUUACGCCGUUCGGAUCU	-0.379
UGGGAGGUGGAUUUUGUUUAUUUUUUUAGCUCAUUUCCAGGGGUGGGAAUUUUUUUUUAGUAUGUGUCAUGAAUAAAGUUGUUUUUGAAA	0.587
UGGGAGGUGGAUUUUGUUUAUUUUUUUAGCUCAUUUCCAGGGGUGGGACUUUUUUUUUAAUAUGUGUCAUGAAUAAAGUUGUUUUUGAAA	0.326
UGGGAGGUGGAUUUUGUUUAUUUUUUUAGCUCAUUUCCAGGGGUGUGAAUUUUUUUUUAAUAUGUGUCAUGAAUAAAGUUGUUUUUGAAA	0.579
CUGUGCUACACAUCGUAUGUACCGAAUCGGGCCCCCCCGGGCCCCCCCGGGCCCCCCCGGGAAAGUAUUAUGUUACGCCGUUCGGAUCUG	-1.14
UGGCCCUGGUGGCAUGCGGGGAGGAAGAGGUGGCCUCAUGGAUCGUGGUGGUCCCGGUGGAAUGUUCAGAGGUGGCCGUGGUGGAGCCAG	0.144
GUCCUGUGCUACACAUCGUAUGUACCGAAUCAAAGUGUGUGUGUGUGUGUGUGUGUAAAAAAGUAUUAUGUUACGCCGUUCGGAUCUGCA	0.138
UAACUUUAGAGGAGGAUCUGAUGGAUAUGGCAGUGGACGUGGAUUUAGGGAUGGCUAUAAUGGGUAUGGAGGAGGACCUGGAGGUGGCAA	0.335

Sample 2 — technique: protein binding microarray; molecule type: double-stranded DNA, one strand shown; sample: in vitro; concentration: not given; relative to: not given; reading: higher = stronger binding
Target: Histone acetyltransferase KAT6A, winged helix 1, GST fusion (KAT6A, Homo sapiens, UniProt Q92794, residues 1-85)
Setting: 8-mer, flanks averaged, mean of 2 arrays, mostly near background
Construct (chain): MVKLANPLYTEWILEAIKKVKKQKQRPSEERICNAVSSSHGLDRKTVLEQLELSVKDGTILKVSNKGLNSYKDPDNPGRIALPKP
Sequence	E-score
GGAAACGA	-0.111
CTCCTCGC	0.0306
CTTTATTC	-0.245
CCAACAAG	-0.272
GCGTAAGC	0.302
CATGGCTC	0.0676
CATAGTGC	0.042
CAGTCCAA	-0.259
CGTATGCA	0.0709
CCTGGTTC	-0.16
CCCGGTTA	0.299
CCTAAGGC	-0.076
CAAGAATA	0.0513
ATGCCGGG	0.379
CCAGCTGC	-0.0481
AGTATGGC	-0.0457
TTTAGAAA	0.0368
CCGGAGAC	0.192
AAGTCAGT	-0.0372
AGCTTTAG	-0.148
ACATCCCG	0.262
GAGGCACA	-0.263
GCCGAGAC	0.154
ACACCATA	-0.078
GGACGAGA	-0.0669

Sample 3 — technique: RNA Bind-n-Seq; molecule type: RNA; sample: in vitro; concentration: 365 nM; relative to: no-protein control; reading: higher = stronger binding
Target: RNA binding protein fox-1 homolog 2, RRM domain, GST-SBP tag (RBFOX2, Homo sapiens, UniProt O43251-10, residues 100-194)
Setting: natural RNA segment, single round, ends assumed
Constant ends, left off below: GGGAGUUCUACAGUCCGACGAUC … UGGAAUUCUCGGGUGCCAA
Construct (chain): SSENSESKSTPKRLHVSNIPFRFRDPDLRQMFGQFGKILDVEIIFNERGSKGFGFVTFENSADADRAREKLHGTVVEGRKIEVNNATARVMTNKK
Sequence	RBNS enrichment (R)
AAACUGCCCCUUCCACUAGGACUGAGUCUGGGUGUGUGUGAGAGUGUGAGGGAACAUGCCCUGCCUUAGAGGGCUGCCACUGAAGCUGGGCCUCAUAUGUUCCAUGAGGA	0.719
AGUCAUGAAGAUUGAGUUAAUCUCUGAAAUAUCCACACAGUGUUGUCACUCAGGAAUGAUUUGGAAUGUUAGGGAUAGUCACCCACCACCACAGUGCUAGGUUUCAGUGA	0.861
AGGAGGGCACCCUAGGCUCUGGGAUCCCGUGUCUUUCCAGACAAUGUUUUGUUUCCUUUCCUUUGUUUUUUCUUUUAACUGGAAUAAUUACCAUUGAAAAAGAAGUUCCU	0.361
GAAGUGACUCUAGUCUUUGUAAGCAAUUUUCAUUCUCAUUAGGAAGUUAAAUGUAGAUUCACAGAUACAUUUACUUUCAGAAUCCUCAAGAGGAUUUCAAAUGCUAACUU	0.56
CUUAAGUGGCAUUAAACAUUUGAGAGCUAACUAUAUUUUUAUAAGACUACUAUACAAACUACAGAGUUUAUGAUUUAAGGUACUUAAAGCUUCUAUGGUUGACAUUGUAU	0.597
GUGGUUGAUUUCAAUACACUCAAGUGCCAUUCAUCCUUUAAGAAAAACAUCUGGAUAUCAAGGUGGAAAUGGCCCAUUUAAUGAUUGAUUAUAUCAUUUUGUGGAUAUAG	0.283
GGCUGCCCUCUGUAGAGCUGUGAGAGCAGUGGGGGCUGCCCUCUGUAGAGCUGUGAGAGCAGUGGGGGCUGCCCUCUGUAGAGCUGUGAGAGCAGUGGGGGCUGCCCUCU	0.618
UGUUUUGAAAAUCUCAAUUUUAAUCAGGGGUUUUAAAAGAAAAUUGAAAGCCUGAACCUCCAUUUUUCUUCUUGGCUCCAGUUUUGCUGGUCCUCUGGAGAACUCUUCGU	0.382
GGUGACACAAACCAGUUUAUUGGAGAACAGCCUGGACAAAGGCCCAUAGGUAGGUAAAAUAGUAUGGGAGGGAGGCAAUGAAGAAAUCAGUUCCCAUGGAGUUGUGACAG	0.675
GCAUCAAGCCCAUAGGAUGACUGCGCAAUCCUGUUCAGUAUUGUGAAGUAGCCCUUAAUCCUAACUUUUAAGCAAAAUCCCUUGGCCGCACUUUUAAGGUUUGGUUGUUU	1.05
GUUUGCCAUUAGGGUAUUCAUUCAGAUAAUGUUUUCCUACUAGGAAUUACAAACUUUAAACACUUUUUAAAUCUUCAAAAUAUUUAAAACAAAUUUAAAGGGCCUGUUAA	0.445
ACCACAAAACAAACUGACCCUCCUAUUUUUAACUUGGAUACCUGCUAUUCUGCCAAAAGACAUUUUCUAGAAUAGUUUUUAAUGGGUUACUGUCCUUACCCUUCAUCCAA	0.464

Sample 4 — target: UBE2E3 UBC core domain (UniProt Q969T4); technique: yeast two-hybrid; sample: yeast; setting: mostly zero background; relative to: not given; reading: higher = stronger interaction
UniProt Q969T4, sequence (whole entry, looked up): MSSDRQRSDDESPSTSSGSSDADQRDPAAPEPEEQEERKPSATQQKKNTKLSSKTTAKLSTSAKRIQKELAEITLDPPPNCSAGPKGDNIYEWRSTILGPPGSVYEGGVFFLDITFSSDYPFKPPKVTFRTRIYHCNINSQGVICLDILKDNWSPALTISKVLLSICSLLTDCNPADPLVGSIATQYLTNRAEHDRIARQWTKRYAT
B1: TRIM11 RING domain (UniProt Q96F44); chain LSTNLQEEATCAICLDYFTDPVMTDCGHNFCRECIRRCWGQPEGPYACPECRELSPQRNLRP
B2: VPS8 RING domain (UniProt Q8N3P4); chain TRGLNPKQDYCSICLQQYKRRQEMADEIIVFSCGHLYHSFCLQNKECTVEFEGQTRWTCYKCSSSNKVGKLSE
B3: NFX1 RING domain (UniProt Q12986); chain IEQLTTEKYECMVCCELVRVTAPVWSCQSCYHVFHLNCIKKWARSPASQADGQSGWRCPACQNVSAHVPNTY
B4: RNF103 RING domain (UniProt O00237); chain WPADMLHCTECVVCLENFENGCLLMGLPCGHVFHQNCIVMWLAGGRHCCPVCRWPSYKKKQPY
B5: RNF182 RING domain (UniProt Q8N6D2); chain AESQASDELECKICYNRYNLKQRKPKVLECCHRVCAKCLYKIIDFGDSPQGVIVCPFCRFETCLPDDEV
B6: ARIH2 RING domain (UniProt O95376); chain HVPTSHPPHHCAVCMQFVRKENLLSLACQHQFCRSCWEQHCSVLVKDGVGVGVSCMAQDCPLRTPEDFVF
Sequence	lacZ reporter activity
B1 (TRIM11 RING domain)	0
B2 (VPS8 RING domain)	0
B3 (NFX1 RING domain)	0
B4 (RNF103 RING domain)	0
DDVLTKDAGECVICLEELLQGDTIARLPCLCIYHKSCIDSWFEVNRSCPEHPAD (ZNRF1 RING domain (UniProt Q8ND25))	0
B5 (RNF182 RING domain)	0
FAEQPSVKLCCQLCCSVFKDPVITTCGHTFCRRCALKSEKCPVDNVKLTVVVNNI (TRAF7 RING domain (UniProt Q6Q0C0))	0
ASEEEFQFLRCQQCQAEAKCPKLLPCLHTLCSGCLEASGMQCPICQAPWPLGADTP (PML RING domain (UniProt P29590))	0
B6 (ARIH2 RING domain)	0

A few entries again (sample 2):
Sequence	E-score
CCTAAGGC	-0.076
CAAGAATA	0.0513
ATGCCGGG	0.379
CCAGCTGC	-0.0481
AGTATGGC	-0.0457
